Measured values of several laboratories.
Numbered parts are unrelated; each lists some results of a single study.

Sample 1 — technique: RNA Bind-n-Seq; form: RNA; sample: in vitro; tested at: 200 nM; setting: whole 134-nt RNA, ends assumed; with: 150 mM KCl; baseline: input library; reading: higher = stronger binding
Target: Fragile X messenger ribonucleoprotein 1, C-terminal low-complexity region (Fmr1, Mus musculus, UniProt P35922)
| Oligonucleotide | log2 enrichment |
| --- | --- |
| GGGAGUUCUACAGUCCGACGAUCUUGACCGGAGCGGCCGUCACUUUGGUACAAUCCUCAAUUACCUGCGGGAUGGGUCUGUGCCACUGCCGGAGAGUACGAGAGAACUGGGGGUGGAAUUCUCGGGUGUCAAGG | -1.1 |
| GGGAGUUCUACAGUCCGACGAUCUGGGAGGUGGAUUUUGUUUAUUAUUUUAGCUCAUUUCCAGGGGUGGGAAUUUUUUUUUAAUAUGUGUCAUGAAUAAAGUUGUUUUUGAAAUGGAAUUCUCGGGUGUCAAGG | 0.19 |
| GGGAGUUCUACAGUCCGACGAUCACCAUGCAGGUGGGCAUCUUUGGGAAGUGGGGCAAGGGGGGGAUAGGGAGGGGGGUAACACUUUGGAAACAGGUGGUCCCAGGUCGUUUCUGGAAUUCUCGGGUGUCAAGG | 0.708 |
| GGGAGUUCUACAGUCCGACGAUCUUGGCUCGAGAGAUUGAAUCAAGCCCCCAGUACCGCCUACGGAUCGCCAUGGAGAACGACGAUGGGCGCACUGAAGAGGAGAAGCACAGUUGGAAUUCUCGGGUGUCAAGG | -0.451 |
| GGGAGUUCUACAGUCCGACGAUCGCAGGAAGUAAAAACAAAUGGAAAUGCUUCGGAUAGUGGCAGGGGUGGGGGUUGAAAAGGAAAGGGUGGGAUGGGAGUGGGUAAAGAGUUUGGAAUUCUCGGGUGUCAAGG | 0.403 |
| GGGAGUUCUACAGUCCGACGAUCGUCCUGUGCUACACAUCGUAUGUACCGAAUCGGCCCCCCGGCCCCCCGGGCCCCCCGGGAAAGUAUUAUGUUACGCCGUUCGGAUCUGCAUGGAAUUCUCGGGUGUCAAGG | -0.236 |
| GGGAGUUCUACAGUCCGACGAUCUGGCCCUGGUGGCAUGCGGGGAGGAAGAGGUGGCCUCAUGGAUCGUGGUGGUUCCGGUGGAAUGUUCAGAGGUGGCCGUGGUGGAGACAGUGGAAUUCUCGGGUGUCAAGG | 0.139 |
| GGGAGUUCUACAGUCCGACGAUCCCUGUGCUACACAUCGUAUGUACCGAAUCGGGGUUUUUUGGGUUUUUUGGGGUUUUUUGGGAAAGUAUUAUGUUACGCCGUUCGGAUCUGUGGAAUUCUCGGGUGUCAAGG | -0.398 |
| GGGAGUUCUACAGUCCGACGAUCAAGUCCUGUGCUACACAUCGUAUGUACCGAAUCGGUUUUUUUGGAGGAAAAAAAGGAAAGUAUUAUGUUACGCCGUUCGGAUCUGCACUUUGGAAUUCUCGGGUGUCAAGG | -0.938 |

Sample 2 — technique: protein-binding microarray; form: double-stranded DNA, one strand shown; sample: in vitro; tested at: 0.8 µM; setting: whole 60-bp probe, no competitor; reading: higher = stronger binding
Target: Centromere-binding protein 1, full length, N-terminal tag (CBF1, Saccharomyces cerevisiae, UniProt P17106, residues 1-351)
Sequence of UniProt P17106 (whole entry, looked up): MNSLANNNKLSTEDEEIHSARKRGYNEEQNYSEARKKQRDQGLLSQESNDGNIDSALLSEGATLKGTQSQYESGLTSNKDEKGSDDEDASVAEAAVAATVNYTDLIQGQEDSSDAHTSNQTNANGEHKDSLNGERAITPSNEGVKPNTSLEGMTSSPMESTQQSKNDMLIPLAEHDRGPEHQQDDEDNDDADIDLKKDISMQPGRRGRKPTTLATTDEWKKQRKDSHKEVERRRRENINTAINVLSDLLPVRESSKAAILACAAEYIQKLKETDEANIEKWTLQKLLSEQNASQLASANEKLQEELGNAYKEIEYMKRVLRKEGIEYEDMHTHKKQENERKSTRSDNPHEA
| Oligonucleotide | fluorescence intensity [a.u.] |
| --- | --- |
| GAACGCTGGGTAATGGACGTGTCACTCTACTTCTAGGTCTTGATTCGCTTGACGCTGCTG | 535 |
| CTATTCCTCTCTGGCCAGGTGACTTTCTGAATTTTCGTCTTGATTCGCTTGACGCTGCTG | 1080 |
| CTAAAATAAAATTGTCACATCTGATAATTATACTTCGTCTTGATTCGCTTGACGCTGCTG | 560 |
| GAAGTATCGTGATATATCGTGATTTACAACTGGTAGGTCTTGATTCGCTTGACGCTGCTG | 884 |
| GAAACAAAAAAGCATCAGGTATTTAATGGATAATAGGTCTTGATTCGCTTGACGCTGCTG | 555 |
| CTATGAAGCATCTGGATCACCAGTACAAACAGTTTCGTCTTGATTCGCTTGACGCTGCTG | 510 |
| GAAGCATAAAGTATGCATCAGAAGGATTCTCACTAGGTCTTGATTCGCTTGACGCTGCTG | 502 |
| GAATAAAGCAGAAATCACGATTCAAAAAAAAAATAGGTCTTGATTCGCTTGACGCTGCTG | 717 |
| GAATGCTATTGATATCACGACATGTGCGCTTCTTAGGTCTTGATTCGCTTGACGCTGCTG | 1180 |
| CTACCTTTGCGTGTGCACGTTTGTTTACTTTCTTTCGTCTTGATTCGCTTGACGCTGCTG | 682 |

Sample 3 — technique: RNA Bind-n-Seq; form: RNA; sample: in vitro; tested at: not given; baseline: input RNA pool; reading: higher = stronger binding
Target: RING finger protein unkempt homolog, zinc fingers 1-6, GST-SBP tag (UNK, Homo sapiens, UniProt Q9C0B0, residues 30-357)
Setting: RNA with constant flanks, human and mouse sites, ends assumed
Construct (chain): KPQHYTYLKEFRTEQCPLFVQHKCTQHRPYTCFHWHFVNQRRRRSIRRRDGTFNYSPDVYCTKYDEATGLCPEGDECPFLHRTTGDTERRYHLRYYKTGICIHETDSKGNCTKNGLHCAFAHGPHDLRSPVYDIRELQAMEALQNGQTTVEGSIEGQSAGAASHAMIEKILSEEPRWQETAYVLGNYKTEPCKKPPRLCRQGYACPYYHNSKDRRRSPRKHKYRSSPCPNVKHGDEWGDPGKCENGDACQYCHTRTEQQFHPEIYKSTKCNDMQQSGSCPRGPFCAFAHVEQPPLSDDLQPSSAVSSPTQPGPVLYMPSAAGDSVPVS
| Oligonucleotide | bound/input enrichment [ratio] |
| --- | --- |
| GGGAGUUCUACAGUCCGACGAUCGGCCCCUGCCGGGCGCGCAGUGGCACCAUGGGCACGGUGCUGUCCCUAUCCCCCAGCUAUCGGAAGGCCACACUGUUUGAGGAUGGCGCGGCCACCGUGGGCCACUACACGGCCGUGCAGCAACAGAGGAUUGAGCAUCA | 0.129 |
| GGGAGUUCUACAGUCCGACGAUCCAUUUGUAUUGUACAUAAAAUUUUCUAGAAAUACACUUUUUUCCAAAGUGUAAGUUUGUGAAUAGAUUUUAGCAUGAUGAAACUGUCAUAAUGGUGAAUGUUCAAUCUGUGUAAGAAAACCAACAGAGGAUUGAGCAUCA | 0.796 |
| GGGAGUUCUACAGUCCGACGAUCGGUGCCGGGAGCAAAGAACGUAGGUACAUCCAGUUCUCAUUAUGCAUCAGAAAAAUGAAAAAACAGAAGAAAAUUCUAUGGAAGAAAGGAAUUCACUUAGCCUUUUCUGAGAAAUGGAAUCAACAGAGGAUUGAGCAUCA | 0.322 |
| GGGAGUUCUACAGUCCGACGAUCAUCAUUCAUGACCCUGGCCGCGGCGCUCCCCUCGCCAAAGUCGUCUUUCGGGAUCCCUACCGAUUCAAGAAGCGGACAGAGCUGUUCAUCGCAGCGGAGGGGAUCCACACUGGACAGUUCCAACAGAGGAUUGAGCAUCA | 0.0357 |
| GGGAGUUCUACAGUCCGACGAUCGCCUUAGCUGCAUCUUGGACCUCAAGACAAGUAGGAGAACGGACGUUGACCGGUACGGUAAUAGACAGUGGAGAUGGUGUCACUCAUGUCAUUCCUGUGGCUGAAGGGUAUGUGAUUGGCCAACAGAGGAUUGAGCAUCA | 0.346 |
| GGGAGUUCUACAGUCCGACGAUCAUAGAAACCUUGAUUGGCAAAAAGCAGCAGAUCUCUCUUGCCACCCAGAUGGUUAGGAUGAUUCUGAAGAUUGAUGACAUCCGUAAGCCUGGAGAAUCUGAAGAAUAAACUGUACCAUUUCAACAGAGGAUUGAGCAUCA | 0.245 |
| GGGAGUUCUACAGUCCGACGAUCAAACAUUUUUUCAGUCUGAAGACAGAAAGGUUUGUGUCUCAGCUUUCCUUGAGUGUGUUCAUACUAUUUGUUUUUAUUCACCUGACAGCCACGUGAUAGUAAUAAAAACAGGACAUGUGUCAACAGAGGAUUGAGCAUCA | 0.176 |
| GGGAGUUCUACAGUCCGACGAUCUCUUUAUGUUUUUUUCAUUGUUUUAAUGUCACGUGGAUUGUCUUUCCUGGGCUCUUUGUGAGCAGAAGGAUUUCAGAGAAGCUCGCAUAAUGAAAAGGGGAGACUCAUGGAUCUCACAAGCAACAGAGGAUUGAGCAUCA | 0.282 |
| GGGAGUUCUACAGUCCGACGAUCAGCAGCGGAGAGUUUCUGGGGCGCACCUCCAAGAGCUGGGGUCUGAUCUUGCUCUUCUACCUAGUUUUUUAUGGGUUCUUGGCUGCACUCUUCACAUUCACAAUGUGGGCCAUGCUCCAGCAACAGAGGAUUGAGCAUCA | 4.81 |
| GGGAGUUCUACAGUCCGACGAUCAUCCGCAGGGAGAAGGACCAGUUCAAGGUGCCUCGGGACUGAGGCACACCCACGCUGGGACAGGGACUUCUAACCGACUGGCCUGCUGCUAAUGCAGGACAGUCUACUUUUCAGUUAAUUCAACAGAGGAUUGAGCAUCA | 0.103 |
| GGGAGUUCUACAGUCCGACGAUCUGCUGUAUGUUGGAGUAUCCAAAAAGAUUGUAUACAAAAACUAACAAACAGAAAAGUGAACUUUGUAAAUGUAUAGAAACAGUUCAUCAAGAUUCAUGUAAUGCCUGCUUUCCUCAGCAGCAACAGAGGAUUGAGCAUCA | 0.156 |

Mixed results
| Molecule | target | assay | system | conditions | scale | measurement | result |
| --- | --- | --- | --- | --- | --- | --- | --- |
| PhoQ, residues 284 288 289 292 302 303 NLSRDF | PhoP, residues 12 14 15 18 19 HEGLL (Escherichia coli, UniProt P23836) | Sort-seq, item: YFP reporter | E. coli | PhoQ-PhoP variant library, with: 10 µM Mg2+ | baseline: high Mg2+ state, higher = stronger signaling | fold induction | 17 |

Repeated from above (sample 3):
| Oligonucleotide | bound/input enrichment [ratio] |
| --- | --- |
| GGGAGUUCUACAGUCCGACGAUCAAACAUUUUUUCAGUCUGAAGACAGAAAGGUUUGUGUCUCAGCUUUCCUUGAGUGUGUUCAUACUAUUUGUUUUUAUUCACCUGACAGCCACGUGAUAGUAAUAAAAACAGGACAUGUGUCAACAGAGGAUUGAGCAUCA | 0.176 |
| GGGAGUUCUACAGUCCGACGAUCUCUUUAUGUUUUUUUCAUUGUUUUAAUGUCACGUGGAUUGUCUUUCCUGGGCUCUUUGUGAGCAGAAGGAUUUCAGAGAAGCUCGCAUAAUGAAAAGGGGAGACUCAUGGAUCUCACAAGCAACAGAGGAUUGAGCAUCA | 0.282 |
| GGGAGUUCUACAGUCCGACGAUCGGUGCCGGGAGCAAAGAACGUAGGUACAUCCAGUUCUCAUUAUGCAUCAGAAAAAUGAAAAAACAGAAGAAAAUUCUAUGGAAGAAAGGAAUUCACUUAGCCUUUUCUGAGAAAUGGAAUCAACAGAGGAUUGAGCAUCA | 0.322 |
| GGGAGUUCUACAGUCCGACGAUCCAUUUGUAUUGUACAUAAAAUUUUCUAGAAAUACACUUUUUUCCAAAGUGUAAGUUUGUGAAUAGAUUUUAGCAUGAUGAAACUGUCAUAAUGGUGAAUGUUCAAUCUGUGUAAGAAAACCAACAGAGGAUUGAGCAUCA | 0.796 |
| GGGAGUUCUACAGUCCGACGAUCUGCUGUAUGUUGGAGUAUCCAAAAAGAUUGUAUACAAAAACUAACAAACAGAAAAGUGAACUUUGUAAAUGUAUAGAAACAGUUCAUCAAGAUUCAUGUAAUGCCUGCUUUCCUCAGCAGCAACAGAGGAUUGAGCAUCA | 0.156 |
